Measurements from different studies.
Lines come from different studies, so protocols differ. Several values in a cell are separate wells, animals, samples, runs or records. ± gives the spread as reported. ≈ marks a conversion by molar mass, not a printed value.

| Structure (SMILES) | test | system | conditions | how to read | quantity | result |
| --- | --- | --- | --- | --- | --- | --- |
| Cc1ccc(S(=O)(=O)N2CC2C(=O)N(C)C)cc1 (stereo not drawn) |  | mouse, Lewis lung carcinoma | intraperitoneal, 170 mg/kg, 16 doses, day 15 |  | tumour growth inhibition | 38% |
| COc1ccccc1-c1n[nH]c2nc(NC3CCN(C(=O)Cc4ccc(F)cc4F)CC3)ncc12 | bead binding, competition bead pull-down, refers to: LINJ.26.0770 | Leishmania donovani axenic amastigote extract | 10 µM | reference: vehicle | relative abundance | 0.98 |
| Cc1cc(O)cc(C)c1C[C@H](N)C(=O)N[C@H](CCCNC(=N)N)C(=O)N[C@@H](Cc1ccccc1)C(=O)N[C@@H](CCCCN)C(=O)NCCCCCCCCNC(=O)[C@H](Cc1ccccc1)NC(=O)[C@H](CC1CCCCC1)NC[C@@H]1Cc2ccccc2CN1C(=O)[C@@H](N)Cc1ccc(O)cc1 | agonist | guinea pig ileum |  |  | IC50 | 0.318 ± 0.049 µM |
| CC(C)C[C@H](NC(=O)[C@H](Cc1ccccc1)NC(=O)CNC(=O)CNC(=O)[C@@H](N)Cc1ccc(O)cc1)C(=O)O | [3H]deltorphin II uptake, inhibitor | rabbit, cells | 15 min, NaCl-containing medium |  | IC50 | 8.8 ± 2.2 µM |
| O=P(O)(O)Oc1c2c(c(OP(=O)(O)O)c3c1C1CC3c3cc4ccccc4cc31)C1CC2c2cc3ccccc3cc21 | 1H NMR titration, refers to: choline N-methyl signal | methanol-d4 | added: DOPC |  | association constant | 75 ± 9 M⁻¹ |
| COc1ccccc1-c1n[nH]c2nc(N[C@H]3CC[C@H](NS(=O)(=O)CC(C)C)CC3)ncc12 | bead binding, competition bead pull-down, refers to: LINJ.26.1590 | Leishmania donovani extract | 10 µM | reference: vehicle | relative abundance | 1.03 |
| COc1ccc2c(c1OC)C[NH+]1CCc3cc4c(cc3C1C2)OCO4.[Cl][Fe-]([Cl])([Cl])[Cl] (stereo not drawn) |  |  | 1.0 mg/mL, 30 min, 25 °C |  | DPPH scavenging | 47.2% |
| Cc1ccc(C2=CC(C)(C)Oc3ccc(-c4ccc(-c5ccc(C(=O)O)cc5)[nH]4)cc32)cc1 |  | CD1 mouse, male | 10 mg/kg, 0 week after end of treatment, dosed for 4 weeks |  | cauda epididymal sperm count | 3.4 and 5.4 and 12.2 and 3.3 and 2.8 |
| CCCC[C@@H]1NC(=O)[C@H](Cc2ccc(O)cc2)NC(=O)[C@@H]2CCCN2C(=O)[C@H](CC(=O)O)NC(=O)[C@H](C)NC(=O)[C@H](Cc2ccccc2)NC(=O)[C@@H]2CSCCC(=O)N3CN(CN(C3)C(=O)CCSC[C@@H](C(=O)N[C@@H](C)C(N)=O)NC1=O)C(=O)CCSC[C@H](NC(C)=O)C(=O)N[C@@H](CC(C)(C)C)C(=O)N1CCC[C@H]1C(=O)N[C@@H](CCC(=O)O)C(=O)N[C@H](CCCCNC(=O)CCc1cn(CCOCCOCCOCCN(CCOCCOCCOCCC(=O)N[C@H]3CSCCC(=O)N4CN5CN(C4)C(=O)CCSC[C@H](NC(=O)[C@@H](CC(=O)O)NC(=O)[C@H](Cc4cccc6ccccc46)NC(=O)[C@@H]4CCCN4C3=O)C(=O)N[C@@H](CCSC)C(=O)N[C@@H](CCCCNC(=N)N)C(=O)N[C@@H](CC(=O)O)C(=O)N[C@@H](Cc3c[nH]c4ccccc34)C(=O)N[C@@H](CO)C(=O)N[C@@H]([C@@H](C)O)C(=O)N3CCC[C@H]3C(=O)N3C[C@H](O)C[C@H]3C(=O)N[C@@H](Cc3c[nH]c4ccccc34)C(=O)N[C@H](C(N)=O)CSCCC5=O)CCOCCOCCOCCn3cc(CCC(=O)NCCCC[C@H]4NC(=O)[C@H](CCC(=O)O)NC(=O)[C@@H]5CCCN5C(=O)[C@H](CC(C)(C)C)NC(=O)[C@@H](NC(C)=O)CSCCC(=O)N5CN6CN(C5)C(=O)CCSC[C@H](NC(=O)[C@H](Cc5ccc(O)cc5)NC(=O)[C@@H]5CCCN5C4=O)C(=O)N[C@@H](Cc4ccccc4)C(=O)N[C@@H](C)C(=O)N[C@@H](CC(=O)O)C(=O)N4CCC[C@H]4C(=O)N[C@@H](Cc4ccc(O)cc4)C(=O)N[C@@H](CCCC)C(=O)N[C@H](C(=O)N[C@@H](C)C(N)=O)CSCCC6=O)nn3)nn1)C(=O)N1CCC[C@H]1C(=O)N[C@@H](Cc1ccc(O)cc1)C(=O)N2 | NanoString, refers to: Tab1 mRNA | mouse bearing MC38-Nectin-4 tumour, circulating white blood cells | 5 mg/kg, 24 h, added: anti-CD137 0.2 mg/kg | reference: vehicle | fold change | 1.52 |
| CC[C@H](C)[C@H](NC(=O)[C@@H](NC(=O)c1cccc(Cl)c1Cl)C(C)(C)C)C(=O)N[C@H](C(=O)N[C@H](C(=O)N[C@H](C(=O)N[C@@H](CCC(N)=O)C(=O)N[C@@H](Cc1c[nH]cn1)C(=O)N[C@H](CC(C)C)C(=O)N[C@@H](CO)C(=O)NCCC(=O)N[C@@H](CCCCNC(=O)CC[C@@H]1NC(=O)[C@@H](CCCNC(=N)N)NC(=O)[C@H](CCCNC(=N)N)NC(=O)[C@@H](CCCNC(=N)N)NC(=O)[C@H](CCCNC(=N)N)NC(=O)[C@H](Cc2ccc3ccccc3c2)NC(=O)[C@@H](Cc2ccccc2)NC1=O)C(N)=O)[C@@H](C)O)[C@@H](C)CC)C(C)(C)C |  | mouse, acute lung injury, LPS-induced | intranasal, 10 mg/kg, added: LPS 10 mg/kg i.p. | reference: control peptide | BALF neutrophil count | decreased |
| CCN(Cc1ccccc1)C(=O)CCc1nc(CN2CCN(C(=O)Cc3ccc(OC)c(OC)c3)CC2)no1 | current clamp | DRG neurons, naive rat | 3 µM, added: 500 pA current injection |  | action potential number | 0.71 ± 0.07 |
| CC[C@H](C)[C@H](NC(=O)[C@H](CCCNC(=N)N)NC(=O)[C@H](CO)NC(=O)[C@H](Cc1ccc(O)cc1)NC(=O)[C@@H](NC(=O)[C@@H](NC(=O)[C@H](C)NC(=O)CNC(=O)[C@H](CCCCN)NC(=O)[C@H](CCCCN)NC(=O)CCNC(=O)CCCCCNC(=O)[C@H](CCCNC(=N)N)NC(=O)CCCCCNC(=O)[C@H](CCCNC(=N)N)NC(=O)[C@H](CCCNC(=N)N)NC(=O)CCCCCNC(=O)[C@H](CCCNC(=N)N)NC(=O)[C@H](CCCNC(=N)N)NC(=O)CCCCCNC(=O)[C@H](CCCNC(=N)N)NC(=O)[C@H](CCCNC(=N)N)NC(=O)CCCCCNC(=O)[C@@H](N)CCCNC(=N)N)C(C)C)[C@@H](C)O)C(=O)N[C@@H](CO)C(=O)NCC(=O)N[C@@H](CCC(N)=O)C(=O)N[C@@H](Cc1ccc(O)cc1)C(=O)N[C@@H](CCCCN)C(=O)O | broth microdilution | ATCC 27853 resistant strain, Mueller-Hinton broth |  |  | MIC | 48 µM (≈ 171 µg/mL) |
| CC(C)C[C@H](NC(=O)[C@H](CCC(=O)O)NC(=O)[C@H](Cc1ccccc1)NC(=O)[C@@H]1CCCN1C(=O)CNC(=O)OCc1ccccc1)C(=O)N[C@@H](CCC(=O)O)C(=O)N[C@@H](CCCNC(=N)N)C(=O)N[C@@H](CCCNC(=N)N)C(=O)N[C@@H](Cc1ccccc1)C(=O)N[C@@H](CCCCN)C(=O)N[C@@H](CCC(N)=O)C(=O)N[C@@H](CCC(N)=O)C(=O)O |  | mouse orthotopic tumour |  |  | perfusion fraction f | 0.0837 |
| CCCCCC1=C(NCC)C(=O)C(C/C=C(\C)CCC=C(C)C)=C(O)C1=O | RNA-seq, refers to: Irf1 regulon | mouse, striatum | dose not given | direction not given | normalised enrichment score | 2.21 |
| O=C(O)c1ccc(-c2nc(-c3ccccc3Cl)c3sccn23)cc1 |  | C57BL/6 mice | dose not given, day 17, basal hematopoiesis |  | platelet count change | 134% and 157% and 106% |

For quick reference, copied from above:
| Structure (SMILES) | test | system | conditions | how to read | quantity | result |
| --- | --- | --- | --- | --- | --- | --- |
| O=C(O)c1ccc(-c2nc(-c3ccccc3Cl)c3sccn23)cc1 |  | C57BL/6 mice | dose not given, day 17, basal hematopoiesis |  | platelet count change | 134% and 157% and 106% |
